Published values collected from several papers.
Compare with care: the assays were run in different laboratories. ± marks the error that the study gave.
Eif4e: Eif4e fragment (Mus musculus)
IFIT1 full length assumed: IFIT1 full length assumed (Homo sapiens, UniProt P09914)
Chain of UniProt P09914 (whole entry, looked up): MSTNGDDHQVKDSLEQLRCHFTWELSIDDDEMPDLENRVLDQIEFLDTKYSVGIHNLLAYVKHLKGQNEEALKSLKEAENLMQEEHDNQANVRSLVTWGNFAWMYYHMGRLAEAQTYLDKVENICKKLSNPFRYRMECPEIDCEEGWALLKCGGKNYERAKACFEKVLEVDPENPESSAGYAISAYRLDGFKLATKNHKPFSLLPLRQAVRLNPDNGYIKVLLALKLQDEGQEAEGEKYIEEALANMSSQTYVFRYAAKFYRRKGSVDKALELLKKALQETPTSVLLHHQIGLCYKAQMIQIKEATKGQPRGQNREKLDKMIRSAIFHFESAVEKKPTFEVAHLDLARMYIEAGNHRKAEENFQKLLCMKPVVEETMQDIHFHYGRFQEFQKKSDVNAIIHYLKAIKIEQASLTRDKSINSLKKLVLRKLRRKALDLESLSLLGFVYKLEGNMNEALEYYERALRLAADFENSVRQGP
TFRC residues 1-760: TFRC residues 1-760 (Homo sapiens, UniProt P02786)
Chain of UniProt P02786 (whole entry, looked up): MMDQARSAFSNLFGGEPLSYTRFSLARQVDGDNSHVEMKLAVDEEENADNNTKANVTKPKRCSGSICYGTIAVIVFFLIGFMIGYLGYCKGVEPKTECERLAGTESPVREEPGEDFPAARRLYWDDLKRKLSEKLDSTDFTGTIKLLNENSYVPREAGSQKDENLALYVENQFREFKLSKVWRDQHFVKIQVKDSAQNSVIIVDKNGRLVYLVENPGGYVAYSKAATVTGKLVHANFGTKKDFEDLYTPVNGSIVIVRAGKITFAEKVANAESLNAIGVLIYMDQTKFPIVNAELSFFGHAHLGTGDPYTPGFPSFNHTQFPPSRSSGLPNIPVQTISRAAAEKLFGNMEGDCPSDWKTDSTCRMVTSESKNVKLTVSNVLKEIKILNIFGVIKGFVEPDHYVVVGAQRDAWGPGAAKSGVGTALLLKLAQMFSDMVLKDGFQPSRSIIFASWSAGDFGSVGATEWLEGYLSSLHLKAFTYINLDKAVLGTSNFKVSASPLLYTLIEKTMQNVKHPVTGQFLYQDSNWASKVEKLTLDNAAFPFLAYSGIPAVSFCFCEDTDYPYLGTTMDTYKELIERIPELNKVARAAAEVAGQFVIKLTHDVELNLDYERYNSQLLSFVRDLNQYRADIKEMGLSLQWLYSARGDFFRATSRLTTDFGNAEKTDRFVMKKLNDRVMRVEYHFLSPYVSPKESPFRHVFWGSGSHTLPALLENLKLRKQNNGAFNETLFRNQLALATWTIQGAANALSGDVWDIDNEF
OGG1 full length assumed: OGG1 full length assumed (Homo sapiens, UniProt O15527)
Chain of UniProt O15527 (whole entry, looked up): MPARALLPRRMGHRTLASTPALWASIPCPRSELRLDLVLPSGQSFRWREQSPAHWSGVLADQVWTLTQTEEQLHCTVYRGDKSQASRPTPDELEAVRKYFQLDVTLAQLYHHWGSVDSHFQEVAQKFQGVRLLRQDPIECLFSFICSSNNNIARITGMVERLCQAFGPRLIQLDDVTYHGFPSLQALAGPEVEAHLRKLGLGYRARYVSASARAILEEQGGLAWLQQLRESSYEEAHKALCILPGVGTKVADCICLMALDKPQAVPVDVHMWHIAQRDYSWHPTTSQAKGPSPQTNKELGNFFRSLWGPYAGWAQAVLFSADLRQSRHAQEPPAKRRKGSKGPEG
T1: NR1I2/RXRA (Homo sapiens); chain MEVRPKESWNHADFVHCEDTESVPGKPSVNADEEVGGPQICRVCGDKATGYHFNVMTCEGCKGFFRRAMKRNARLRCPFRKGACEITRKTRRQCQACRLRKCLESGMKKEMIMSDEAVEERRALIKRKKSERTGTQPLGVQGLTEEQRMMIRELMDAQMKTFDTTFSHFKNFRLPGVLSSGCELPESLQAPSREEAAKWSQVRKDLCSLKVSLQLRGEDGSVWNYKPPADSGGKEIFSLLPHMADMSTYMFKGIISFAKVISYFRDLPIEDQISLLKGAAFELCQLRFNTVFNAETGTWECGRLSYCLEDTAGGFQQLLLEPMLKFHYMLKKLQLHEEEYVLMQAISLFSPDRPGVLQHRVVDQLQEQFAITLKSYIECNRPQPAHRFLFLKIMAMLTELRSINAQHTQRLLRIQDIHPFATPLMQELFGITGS; chain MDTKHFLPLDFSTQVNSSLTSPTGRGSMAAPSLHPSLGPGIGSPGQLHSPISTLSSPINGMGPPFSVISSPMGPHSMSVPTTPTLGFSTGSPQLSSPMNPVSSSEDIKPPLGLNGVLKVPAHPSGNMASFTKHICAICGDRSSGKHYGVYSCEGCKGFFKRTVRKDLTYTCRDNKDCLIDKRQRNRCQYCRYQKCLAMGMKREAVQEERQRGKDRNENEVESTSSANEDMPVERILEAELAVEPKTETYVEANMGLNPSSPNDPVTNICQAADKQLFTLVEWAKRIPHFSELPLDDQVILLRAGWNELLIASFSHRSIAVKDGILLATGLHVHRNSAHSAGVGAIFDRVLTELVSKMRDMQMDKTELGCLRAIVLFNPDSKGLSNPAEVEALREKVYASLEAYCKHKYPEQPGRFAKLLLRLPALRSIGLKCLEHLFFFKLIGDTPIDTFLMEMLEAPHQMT
B1: UGT1A9 (Homo sapiens, UniProt O60656); chain GKLLVVPMDGSHWFTMRSVVEKLILRGHEVVVVMPEVSWQLGRSLNCTVKTYSTSYTLEDLDREFKAFAHAQWKAQVRSIYSLLMGSYNDIFDLFFSNCRSLFKDKKLVEYLKESSFDAVFLDPFDNCGLIVAKYFSLPSVVFARGILCHYLEEGAQCPAPLSYVPRILLGFSDAMTFKERVRNHIMHLEEHLLCHRFFKNALEIASEILQTPVTEYDLYSHTSIWLLRTDFVLDYPKPVMPNMIFIGGINCHQGKPLPMEFEAYINASGEHGIVVFSLGSMVSEIPEKKAMAIADALGKIPQTVLWRYTGTRPSNLANNTILVKWLPQNDLLGHPMTRAFITHAGSHGVYESICNGVPMVMMPLFGDQMDNAKRMETKGAGVTLNVLEMTSEDLENALKAVINDKSYKENIMRLSSLHKDRPVEPLDLAVFWVEFVMRHKGAPHLRPAAHDLTWYQYHSLDVIGFLLAVVLTVAFITFKCCAYGYRKCLGKKGRVKKAHKSKTH
Chain of UniProt O35737 (whole entry, looked up): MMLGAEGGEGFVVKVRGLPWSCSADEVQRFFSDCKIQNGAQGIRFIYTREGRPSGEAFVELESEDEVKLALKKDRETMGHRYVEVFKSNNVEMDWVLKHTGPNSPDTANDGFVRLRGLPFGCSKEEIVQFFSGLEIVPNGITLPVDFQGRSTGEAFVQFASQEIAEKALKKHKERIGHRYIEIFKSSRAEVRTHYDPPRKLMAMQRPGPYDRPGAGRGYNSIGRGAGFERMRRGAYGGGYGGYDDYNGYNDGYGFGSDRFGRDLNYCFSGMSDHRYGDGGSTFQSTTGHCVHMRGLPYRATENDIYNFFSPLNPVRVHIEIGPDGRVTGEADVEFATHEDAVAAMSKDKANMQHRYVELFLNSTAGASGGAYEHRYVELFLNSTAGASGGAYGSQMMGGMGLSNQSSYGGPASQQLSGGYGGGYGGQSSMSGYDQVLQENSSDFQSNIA
Chain of UniProt Q9NR56 (whole entry, looked up): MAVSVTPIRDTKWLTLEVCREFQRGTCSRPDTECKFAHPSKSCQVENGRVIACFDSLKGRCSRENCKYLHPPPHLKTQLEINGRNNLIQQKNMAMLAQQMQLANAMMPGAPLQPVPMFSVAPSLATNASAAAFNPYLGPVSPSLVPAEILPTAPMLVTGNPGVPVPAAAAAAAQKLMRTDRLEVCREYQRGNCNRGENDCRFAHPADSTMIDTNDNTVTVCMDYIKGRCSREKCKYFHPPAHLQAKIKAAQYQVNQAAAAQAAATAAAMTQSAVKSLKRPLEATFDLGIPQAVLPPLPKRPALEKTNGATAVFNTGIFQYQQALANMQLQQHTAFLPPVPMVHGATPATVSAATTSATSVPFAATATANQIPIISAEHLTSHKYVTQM
Chain of UniProt P19466 (whole entry, unmodified, looked up): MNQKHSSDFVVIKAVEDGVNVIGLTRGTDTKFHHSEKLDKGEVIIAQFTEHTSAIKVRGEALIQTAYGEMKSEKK
Chain of UniProt Q4VGL6 (whole entry, looked up): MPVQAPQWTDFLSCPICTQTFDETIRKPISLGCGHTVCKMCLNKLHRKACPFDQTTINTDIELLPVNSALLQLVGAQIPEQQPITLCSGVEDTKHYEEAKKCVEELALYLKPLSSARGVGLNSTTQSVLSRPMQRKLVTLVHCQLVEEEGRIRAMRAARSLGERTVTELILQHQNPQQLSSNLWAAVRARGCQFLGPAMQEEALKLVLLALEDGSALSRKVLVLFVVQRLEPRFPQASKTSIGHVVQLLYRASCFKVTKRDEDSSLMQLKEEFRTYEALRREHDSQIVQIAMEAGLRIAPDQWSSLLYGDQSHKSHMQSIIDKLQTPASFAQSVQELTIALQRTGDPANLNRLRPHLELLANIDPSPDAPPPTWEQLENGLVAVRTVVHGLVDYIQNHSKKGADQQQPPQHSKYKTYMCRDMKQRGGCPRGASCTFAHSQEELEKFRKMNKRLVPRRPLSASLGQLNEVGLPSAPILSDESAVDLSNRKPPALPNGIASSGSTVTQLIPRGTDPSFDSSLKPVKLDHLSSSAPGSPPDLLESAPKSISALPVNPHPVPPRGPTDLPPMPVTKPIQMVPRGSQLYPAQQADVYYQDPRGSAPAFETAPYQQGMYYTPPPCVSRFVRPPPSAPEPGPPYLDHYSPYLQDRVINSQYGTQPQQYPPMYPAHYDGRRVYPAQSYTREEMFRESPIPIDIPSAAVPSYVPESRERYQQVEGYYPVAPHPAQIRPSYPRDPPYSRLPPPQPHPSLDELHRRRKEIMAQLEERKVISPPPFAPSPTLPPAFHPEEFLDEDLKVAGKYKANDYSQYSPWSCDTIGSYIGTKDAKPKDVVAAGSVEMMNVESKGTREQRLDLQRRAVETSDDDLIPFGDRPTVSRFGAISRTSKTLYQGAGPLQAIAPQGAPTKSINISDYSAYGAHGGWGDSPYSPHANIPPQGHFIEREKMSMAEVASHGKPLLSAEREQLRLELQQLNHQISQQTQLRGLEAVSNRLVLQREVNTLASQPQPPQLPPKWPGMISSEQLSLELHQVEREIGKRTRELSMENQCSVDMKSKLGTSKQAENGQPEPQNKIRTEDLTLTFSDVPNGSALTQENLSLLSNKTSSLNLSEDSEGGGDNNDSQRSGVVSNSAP
Chain of UniProt Q39088 (whole entry, looked up): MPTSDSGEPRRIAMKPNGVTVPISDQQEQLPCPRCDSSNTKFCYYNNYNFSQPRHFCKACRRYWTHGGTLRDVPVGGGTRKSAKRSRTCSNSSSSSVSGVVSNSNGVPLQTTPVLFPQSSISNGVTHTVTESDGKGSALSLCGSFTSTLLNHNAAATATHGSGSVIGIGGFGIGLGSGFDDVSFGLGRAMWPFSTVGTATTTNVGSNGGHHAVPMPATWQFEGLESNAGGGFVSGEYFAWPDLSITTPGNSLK

| Substance | tested on | test | system | setting | quantity | value |
| --- | --- | --- | --- | --- | --- | --- |
| GGG (ssRNA; m7G 5'-5' triphosphate cap, G2) | Eif4e | fluorescence quenching titration | – | – | Kd | 22.7 ± 0.9 nM |
| GGGUUCUACGAUAAACGGUUAAUGACCAGCUUAUGGCUGGCAGUUCCCCGACGACGACGACGACGACGA / TCGTCGTCGTCGTCGTCGTCG (RNA/DNA hybrid; 2'-F pyrimidine RNA, 21-nt DNA anti-tail) | TFRC 1-760 (Homo sapiens, UniProt P02786) | flow cytometry | – | apparent, on cells, not purified | Kd | 355 ± 83 nM |
| GGGAGACCGGCCUCGA (ssRNA; 5' GpppG cap, linear) | IFIT1 full length assumed | BLI | – | – | Kd | 5.64 nM |
| GCG (ssRNA; m7G 5'-5' triphosphate cap, C2) | Eif4e | fluorescence quenching titration | – | – | Kd | 25.1 ± 0.6 nM |
| AUGCACAGGC (ssRNA) | Fab BRG Fab | filter binding | – | – | Kd | 21 ± 4 nM |
| TGAACTCAAAGGAGGTCA (dsDNA) | T1, NR1I2/RXRA (Homo sapiens) | fluorescence anisotropy | double-stranded DNA, one strand shown | together with: SR12813, 9-cis-retinoic acid | Kd | 215 ± 36 nM |
| TACTCATAGGGTTAGGGGCTGCTGGCCAGATACTCAGATGGTAGGGTTACTATGAGCA (ssDNA; 5' C6 spacer) | TFRC residues 1-760 | flow cytometry | PL45 | not purified | Kd | < 15 nM |
| GGGGAACACGUUUACUAACAUAACUUUAUUUACAUAGCAUGUCA / GUAUGCAUAGGCAAUAA (structured RNA (Saccharomyces cerevisiae); 2'-5' branch, two strands) | Fab BRG Fab | filter binding | – | – | Kd | 21 ± 3 nM |
| B1 (UGT1A9) | Oc1ccc(C2CCCC2)cc1 | steady-state kinetics | – | pH 7.4, 37 °C | Vmax/Km | 60 µL/min/mg |
| Insulin human | – | – | rat, dorsal cortex | intranasal, 20 µg per nostril, 120 min | brain concentration | 0 pg/mg tissue |
| GAGUUGAGUUGAGUUGAGUUGAGUUGAGUUGAGUUGAGUUGAGUUGAGUUGAGUU (ssRNA; single strand) | mtrB full length assumed T30V/K37A (Bacillus subtilis, UniProt P19466) | filter binding | – | together with: L-tryptophan 1 mM | Kd | 101 ± 25 nM |
| CGATCATGGAGGCTAGCGCTCCCGTTACAG (dsDNA; blunt, 2'-fluoro-8-oxoG position 16) | OGG1 full length assumed | EMSA | double-stranded DNA, one strand shown | 25 °C, non-cleavable | Kd | 2 ± 1 nM |
| AAATAATCATAAAGTATTAAAGTAATATATAC (dsDNA (Arabidopsis thaliana)) | DOF3.4 zinc finger (Arabidopsis thaliana, UniProt Q39088) | EMSA | double-stranded DNA, one strand shown | – | Kd | 5000 nM |
| GGGAGACCGGCCUCGA (ssRNA; 5' m7GpppG cap, linear) | IFIT1 full length assumed | BLI | – | – | Kd | 17.6 nM |
| TCTGGAACGGAATTCTTCTA (dsDNA (Mus musculus); blunt; 5hmC and 5mC at CpG) | MECP2 1-486 (Homo sapiens, UniProt P51608) | fluorescence anisotropy | double-stranded DNA, one strand shown | KCl 150 mM | Kd | 7.8 ± 4.7 nM |
| GGCCUAGCCGUGGGUUCUACCACGUCUCAAGGCU (structured RNA) | Rc3h1 89-404 (Mus musculus, UniProt Q4VGL6) | EMSA | – | together with: MgCl2 1 mM | Kd | 770 ± 158 nM |
| GCAUUGGUGGUUCAGUGGUAGAAUUCUCGC (ssRNA; 2'-OMe U4; m2G6; dihydrouridine 19) | Hnrnph1 1-449 (Mus musculus, UniProt O35737) | EMSA | – | – | Kd | 220 nM |
| TGACTACTACATNGTTGCCTACCAT / ATGGTAGGCAACTATGTAGTAGTCA (dsDNA; blunt, abasic THF site) | DNA alkylation repair protein full length assumed (Bacillus cereus, UniProt Q816E8) | fluorescence anisotropy | – | – | Kd | 3100 ± 300 nM |
| CACGACGCAAGGGACCACAGGTGGACCGCTAACTCCGGCCCAGGTCCAGCACGACACCGCAGAGGCA (ssDNA; indole-modified 5-ethynyl-dU at 22, 30, 34, 45) | CSPG4 30-2322 (Homo sapiens, UniProt Q6UVK1) | flow cytometry | A375 | apparent, intact cells, not purified, together with: Mg2+ 5 mM | Kd | 22 nM |
| ACCGCTATGTATTTCGTACATTACTGCCAGCCACCATGAATATTGTACGGTACCATAAATACTTGACCACCTGTAGTACATAAAAACCCAATCCACATCAAAACCCCCTCCCCATGCTTA (D-loop DNA; D-loop in supercoiled plasmid) | POLG2 fragment (Homo sapiens) | EMSA | – | least cold plasmid | Kd | 1.5 nM |
| GUAUGCAUAGGC (ssRNA (Saccharomyces cerevisiae); hairpin when bound) | Fab BRG Fab | filter binding | – | – | Kd | 12 ± 1 nM |
| GCACCUCUGCUUGCUGUUUACCUGUAUGUUAAUUCGCUUG (ssRNA) | MBNL1 1-260 (Homo sapiens, UniProt Q9NR56) | EMSA | – | – | Kd | 5.8 nM |
| TTTACTCATAGGGTTAGGGGCTGCTGGCCAGATACTCAGATGGTAGGGTTACTATGAGCAAA (ssDNA; 5' C6 spacer) | TFRC residues 1-760 | flow cytometry | PL45 | not purified | Kd | < 15 nM |
| CGATCATGGAGGCTANCGCTCCCGTTACAG / CTGTAACGGGAGCGCTAGCCTCCATGATCG (dsDNA; blunt, chloroindole analog position 16) | OGG1 full length assumed | EMSA | – | 25 °C, product formed during incubation | Kd | < 0.003 nM |

A few entries again:
| Substance | tested on | test | system | setting | quantity | value |
| --- | --- | --- | --- | --- | --- | --- |
| GUAUGCAUAGGC (ssRNA (Saccharomyces cerevisiae); hairpin when bound) | Fab BRG Fab | filter binding | – | – | Kd | 12 ± 1 nM |
| AAATAATCATAAAGTATTAAAGTAATATATAC (dsDNA (Arabidopsis thaliana)) | DOF3.4 zinc finger (Arabidopsis thaliana, UniProt Q39088) | EMSA | double-stranded DNA, one strand shown | – | Kd | 5000 nM |
| ACCGCTATGTATTTCGTACATTACTGCCAGCCACCATGAATATTGTACGGTACCATAAATACTTGACCACCTGTAGTACATAAAAACCCAATCCACATCAAAACCCCCTCCCCATGCTTA (D-loop DNA; D-loop in supercoiled plasmid) | POLG2 fragment (Homo sapiens) | EMSA | – | least cold plasmid | Kd | 1.5 nM |
